Published values of several laboratories.
Every numbered part comes from another study and shows a few of its results, in no order. Changes are numbered by the printed parent chain.

Study 1
Target: Ras GTPase-activating protein-binding protein 1, full length (G3BP1, Homo sapiens, UniProt Q13283)
UniProt Q13283, sequence (whole entry, looked up): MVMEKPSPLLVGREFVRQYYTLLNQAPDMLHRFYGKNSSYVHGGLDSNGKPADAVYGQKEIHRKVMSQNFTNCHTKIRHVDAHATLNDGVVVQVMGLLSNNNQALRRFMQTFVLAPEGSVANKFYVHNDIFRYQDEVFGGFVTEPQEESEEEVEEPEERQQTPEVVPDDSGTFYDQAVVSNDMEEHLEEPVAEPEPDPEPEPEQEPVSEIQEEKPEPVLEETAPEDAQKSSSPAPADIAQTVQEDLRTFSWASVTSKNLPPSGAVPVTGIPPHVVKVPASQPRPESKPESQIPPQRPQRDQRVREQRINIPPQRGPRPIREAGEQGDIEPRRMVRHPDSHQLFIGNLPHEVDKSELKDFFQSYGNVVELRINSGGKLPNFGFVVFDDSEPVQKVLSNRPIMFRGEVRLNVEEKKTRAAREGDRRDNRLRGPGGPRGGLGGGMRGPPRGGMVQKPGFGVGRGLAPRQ
Method: RNA Bind-n-Seq
Form: RNA
Sample: in vitro
Concentration: 200 nM
Setting: whole 134-nt RNA, ends assumed
With: 150 mM KCl
Relative to: input library
Direction: higher = stronger binding
Measurement: log2 enrichment
Shared flanks, not repeated: GGGAGUUCUACAGUCCGACGAUC … UGGAAUUCUCGGGUGUCAAGG
Strand = UGGCCCUGGUGGCAUGCGGGGAGGAAGAGGUGGCCUCAUGGAUCGUGGUGGUCCCGGUGGAAUGUUCAGAGGUGGCCGUGGUGGAGCCAG; result = 0.208
Strand = CACAGACAACACGCACCCACACAGACACAGAGGGAAGGGGUUGGGAUGCGGACAGGGUGCACAGCAGGGCGGGGUAGGACCCCAGCCCCU; result = 1.56
Strand = CUGUGCUACACAUCGUAUGUACCGAAUCGGUUUUUUUGGGUUUUUUUGGGGUUUUUUUGGGGAAAGUAUUAUGUUACGCCGUUCGGAUCU; result = -0.88
Strand = CAAGUCCUGUGCUACACAUCGUAUGUACCGAAUCGGGGAAAGGGGUGGGGAGGGGAAAGUAUUAUGUUACGCCGUUCGGAUCUGCACUUC; result = 1.39
Strand = UCCUGUGCUACACAUCGUAUGUACCGAAUCGGGGUUUUUGGGGUGGGGUUUUUUUGGGGAAAGUAUUAUGUUACGCCGUUCGGAUCUGCA; result = 0.632
Strand = UGGGAGGUGGAUUUUGUUUAUUUUUUUAGCUCAUUUCCAGGGGUGGGAAUUUUUUUUUUAUAUGUGUCAUGAAUAAAGUUGUUUUUGAAA; result = 0.209
Strand = UCAGCAACCACCUCAACUCAUUGACUCCGCCAACAUCCGUCAGGAGGAUGCCUUUGAUAACAACAGUGACAUUGCUGAAGAUGGUGGCCA; result = -0.973
Strand = UCACCUGUUUACAGUGAAUCAGACGUCCCAAUAGAUGUGGAGACGGUCACAUCAACGCCUAUGCCACUCUAUGACAAUCAGAAGGCACGC; result = -1.26
Strand = UAACUGUAGAGGAGGAUCUGAUGGAUAUGGCAGUGGACGUGGAUUUGGGGAUGGCUAUAAUGGGUAUGGAGGAGGACCUGGAGGUGGCAA; result = 0.559
Strand = UGAAGCGAGAAGCUGCCCUACCCCCAGUGAGCCCCCUGAAGGCGGCUCUCUCUGAGGAGGAGUUAGAGAAGAAAUCCAAGGCUAUCAUUG; result = -0.684
Strand = UGGGAGGUGGAUUUCGUUUAUUUUUUUAGCUCAUUUCCAGGGGUGGGAAUUUUUUUUUAAUAUGUGUCAUGAAUAAAGUUGUUUUUGAAA; result = -0.0526
Strand = UAACUUAAGAGGAGGAUCUGAUGGAUAUGGCAGUGGACGUGGAUUUGGGGAUGGCUAUAAUGGGUAUGGAGGAGGACCUGGAGGUGGCAA; result = 0.26
Strand = UCAAGUCCUGUGCUACACAUCGUAUGUACCGAAUCGGUUUGGUUUUUUUGGAGGAAAGUAUUAUGUUACGCCGUUCGGAUCUGCACUUCC; result = -0.487
Strand = AGUCCUGUGCUACACAUCGUAUGUACCGAAUCGGGCCCCGGGGCCCCGGGCCCCGGGAAAGUAUUAUGUUACGCCGUUCGGAUCUGCACU; result = -1.13

Study 2
Target: RING finger protein unkempt homolog, zinc fingers 1-6, GST-SBP tag (UNK, Homo sapiens, UniProt Q9C0B0, residues 30-357)
Method: RNA Bind-n-Seq
Form: RNA
Sample: in vitro
Concentration: not given
Setting: RNA with constant flanks, human and mouse sites, ends assumed
Relative to: input RNA pool
Direction: higher = stronger binding
Measurement: bound/input enrichment
Shared flanks, not repeated: GGGAGUUCUACAGUCCGACGAUC … CAACAGAGGAUUGAGCAUCA
Construct (chain): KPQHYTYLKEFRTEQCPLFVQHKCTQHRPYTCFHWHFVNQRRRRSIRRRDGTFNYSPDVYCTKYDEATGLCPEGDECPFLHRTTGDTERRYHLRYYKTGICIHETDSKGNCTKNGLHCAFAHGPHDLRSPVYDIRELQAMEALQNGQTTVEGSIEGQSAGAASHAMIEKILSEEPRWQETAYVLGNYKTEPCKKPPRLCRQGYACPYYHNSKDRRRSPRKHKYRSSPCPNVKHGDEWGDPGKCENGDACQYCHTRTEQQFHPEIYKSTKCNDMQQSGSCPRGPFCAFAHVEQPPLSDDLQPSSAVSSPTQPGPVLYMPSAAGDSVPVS
Strand = AGAUAGACAACUGUCCGCAGUUGCUUUUAAAAAAGGUCACUAUAAUAAGUACUAUAUAGUACAGUAUUAAUUUAUAGCAGGAAAUCGUAUCUUGUAAACUGUAUAUAAAACACUGUUUUA; result = 0.521 ratio
Strand = CCUUCAAGGAAAGAAUUACCAGAAUACUAUGAAUUAAUUAGGAAGCCAGUGGAUUUCAAAAAAAUAAAGGAAAGGAUUCGUAAUCAUAAGUACCGGAGCCUAGGCGACCUGGAGAAGGAU; result = 0.975 ratio
Strand = CUGUGACCACAAGAUCCUACCUGAGUGGCAGCUGAAGUUGACUCCCUCUCCUUGCCUGAACCCCCCCCCACUGCCCCCCCAUCCCCCAGUGUCGGCUGAGAUGUUGCCUCUGCACGGUUC; result = 1.32 ratio
Strand = CGGAAUGAAGUUGUCGGUUUAAUUUUCCGUUUAACAAUAUUUGGUGCAGUAACGUACUUCACUAUUAAAUGGAUGGUAGAUGCCAUUGACCCCACCAGGAAGCAGAAGGUAGAAGCUCAG; result = 0.351 ratio
Strand = CCAAGAAUUCCAAACAUGCCUGACAAUCUUGUCCCCUUAUUGUAAUAAAGAGGGAUACCAUCAGUCUAGAUUUUAUUGAGAAUCCUUAAGAUUUAAAGCAUAGCUGUGGAUGUGGUGAAG; result = 0.708 ratio
Strand = UAAGAAUUGGAAGAAUUGUGUAGGAGGCAGUAGUCAAAAAGUAGAAGCAGUUUGGAAGAGUAGUUACAAAUAUCAAGAGCCAGGUGGCUAAAAGGUGGAGCUAUAGGUCAUUGAAGCUCA; result = 9.85 ratio
Strand = GAUGGACUUACUGUUCACCUUGUCAUUAAAACACAAAACAGGCCUCAGGAUCAUUCAGCUCAGCAAACAAAUACAGCUGGAAGCAAUGUUACUACAUCAUCAACUCCUAAUAGUAACUCU; result = 0.524 ratio
Strand = UGCUAUGACUGAGGUGGCCUCCAGGCUCUCUGCACACUUACAGAUUUUUUUAACGGGAUCAAAUUGUACAUGCUGUUUUGUAACUUUUUCACUCAACAGUCCCAUGCCUAUCUUGCUGUG; result = 0.0936 ratio
Strand = AGGCCAAAUCAGAACCGGUGCAUAGUAAUACUGCGUGAGAUAUCGGAGUCUACCCCCGUGGAAGAAGUAGAAGCACUAUUUAAAGGAGAUAAUUUACCAAAAUUUAUAAACUGUGAAUUU; result = 0.979 ratio
Strand = UUUGGACAGUGCUAUGAGUUUCUUACUCUUCACACAGUGAAAAAGUACUUUCUUCCAAUAAUAGAAAUGGUUCCACAGUUUUUAGAAAACUUAACUGAUGAAGAGCUGAAGAAAGAAGCA; result = 0.558 ratio
Strand = GAUGAUGAUGAAGAAUCUGGACGAUUACGUUUUAAAACUGAAAGGAAAGAAGGAACAAUUAUUAGGCUUUCAGAUGUAACUAGAGAGAGAAGGAACAUUCCAGAAACUUUGGAACUUUCU; result = 0.741 ratio

Study 3
Target: Sal-like protein 4, full length isoform B (SALL4, Homo sapiens, UniProt Q9UJQ4-2, residues 1-616)
Method: universal PBM
Form: double-stranded DNA, one strand shown
Sample: in vitro
Concentration: not given
Setting: 8-mer, flanks averaged, mean of replicates
Direction: higher = stronger binding
Measurement: E-score
Construct (chain): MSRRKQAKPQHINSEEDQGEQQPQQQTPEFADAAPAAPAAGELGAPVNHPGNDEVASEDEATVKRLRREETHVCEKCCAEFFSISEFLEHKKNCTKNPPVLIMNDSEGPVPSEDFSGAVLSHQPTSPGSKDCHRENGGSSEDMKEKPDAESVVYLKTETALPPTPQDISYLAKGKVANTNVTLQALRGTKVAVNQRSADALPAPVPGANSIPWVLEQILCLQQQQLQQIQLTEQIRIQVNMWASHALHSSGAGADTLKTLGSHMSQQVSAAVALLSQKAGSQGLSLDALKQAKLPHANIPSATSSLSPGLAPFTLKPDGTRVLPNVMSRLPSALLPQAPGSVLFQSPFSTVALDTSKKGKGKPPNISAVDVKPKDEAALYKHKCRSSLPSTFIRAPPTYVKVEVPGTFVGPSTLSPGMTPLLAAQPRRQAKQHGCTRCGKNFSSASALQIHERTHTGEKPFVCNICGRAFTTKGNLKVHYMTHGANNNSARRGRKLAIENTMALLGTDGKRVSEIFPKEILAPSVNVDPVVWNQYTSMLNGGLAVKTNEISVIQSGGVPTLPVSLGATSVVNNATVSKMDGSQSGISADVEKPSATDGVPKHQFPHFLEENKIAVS
Strand = AGGACGTA; result = -0.0112
Strand = CTCTTACA; result = 0.0984
Strand = AAGGGCCG; result = -0.279
Strand = GTGGACCA; result = -0.121
Strand = AGGAGGTC; result = -0.0992
Strand = CTGCCAGA; result = -0.21
Strand = CTTAGAAC; result = 0.0706
Strand = GTGGTCGA; result = -0.209
Strand = AGCCTACT; result = -0.137
Strand = GCAAACCC; result = -0.196
Strand = GTCAGAGA; result = -0.0526
Strand = AGAAAGGC; result = -0.0116
Strand = CGGGACAG; result = -0.175
Strand = GACAGTCA; result = -0.182
Strand = CGACATGA; result = 0.0237
Strand = CCCGCGCG; result = -0.195
Strand = CCCTCGAC; result = -0.253
Strand = CGTTGTAC; result = 0.187
Strand = GCCCAGTA; result = -0.17
Strand = AGTTCATG; result = 0.0114
Strand = TAGGGGAA; result = 0.00463
Strand = TCCACCCA; result = -0.0974
Strand = CACATCCC; result = -0.0654
Strand = AGTCCTGC; result = -0.169
Strand = CCTTCCGC; result = -0.221

Study 4
Target: CCND1, cyclin fold, Cln2 fusion (human)
Method: yeast growth competition, sequencing
Sample: yeast
Setting: strong parent motif
Relative to: not given
Direction: higher = stronger binding
Measurement: normalised enrichment score
Starting sequence: CCP110 docking peptide (human); EKVKRRLDLDIDG
Change = K2A; result = 0.432
Change = R5K; result = -0.0326
Change = R6A; result = 0.377
Change = G13A; result = 1.23
Change = D10A; result = 0.68
Change = L9F; result = 2.55
Change = D8A; result = -0.17
Change = I11A; result = 0.219
Change = R5A L7A; result = 0.0766
Change = R5A; result = 0.121

Study 5
Target: Histone acetyltransferase KAT6A, winged helix 2, GST fusion (KAT6A, Homo sapiens, UniProt Q92794, residues 85-181)
Method: protein binding microarray
Form: double-stranded DNA, one strand shown
Sample: in vitro
Concentration: not given
Setting: 8-mer, flanks averaged, mean of 2 arrays, mostly near background
Relative to: not given
Direction: higher = stronger binding
Measurement: E-score
Residues (chain): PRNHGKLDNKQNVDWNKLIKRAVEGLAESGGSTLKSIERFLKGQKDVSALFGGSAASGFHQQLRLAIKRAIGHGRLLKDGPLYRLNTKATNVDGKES
Strand = CAAGAACG; result = 0.159
Strand = AACTGTGA; result = -0.0389
Strand = CTCCGAAA; result = 0.0452
Strand = AGTTAAAT; result = -0.0168
Strand = CTAAGCCC; result = -0.0848
Strand = CTGACCCC; result = -0.0483
Strand = GCGTCAAC; result = -0.108
Strand = AGCGGCGC; result = 0.205
Strand = ATGTGTCA; result = -0.11
Strand = ACTTGTCA; result = -0.106
Strand = GAAGGGGC; result = -0.0301
Strand = AGCTATGG; result = -0.102
Strand = CAGGAGGG; result = 0.118
Strand = GATGAGCC; result = 0.0163
Strand = ACTGAATA; result = -0.079
Strand = GCGACAGA; result = -0.137
Strand = GGTGGCTA; result = -0.0396
Strand = AAATGTGC; result = 0.0339
Strand = ATATCAGC; result = -0.0961
Strand = CGCCTATA; result = -0.0359
Strand = ACGGAAGG; result = 0.00194
Strand = GACCCTGC; result = 0.101
Strand = CAGAAACG; result = 0.182
Strand = CAATTGAG; result = -0.00722
Strand = ATGAGAGA; result = -0.117

Some of these lines once more (study 5):
Strand = ATGAGAGA; result = -0.117
Strand = GGTGGCTA; result = -0.0396
Strand = GACCCTGC; result = 0.101
Strand = AACTGTGA; result = -0.0389
Strand = CAGAAACG; result = 0.182
Strand = CTAAGCCC; result = -0.0848
Strand = GATGAGCC; result = 0.0163
Strand = AGCGGCGC; result = 0.205
Strand = ATATCAGC; result = -0.0961
Strand = CAAGAACG; result = 0.159
Strand = CTGACCCC; result = -0.0483
Strand = ATGTGTCA; result = -0.11
